# Assay results collected from several papers.
# “And” joins repeats or separate records; there may be more than shown.
SMILES,assay,test system,setting,scale,endpoint,value
Cc1nnc(-c2ccc(CC(=O)NCCCC[C@H](NC(=O)c3ccc(OCc4ccc(B(O)O)cc4)c(-c4nc5ccccc5c(=O)[nH]4)c3)C(=O)NCC(=O)NCC(=O)NCC(=O)N[C@@H](Cc3ccccc3)C(=O)N[C@@H](Cc3ccccc3)C(=O)O)cc2)nn1,UPLC-MS/MS,human serum,"100 µM, 4 h, 37 °C",,remaining compound,71.7% and 72.7%
C#Cc1c(F)ccc2cc(O)cc(-c3ncc4c(N5CC6CCC(C5)N6C(=O)OC(C)OC(=O)C(C)CC)nc(OC[C@@]56CCCN5C[C@H](F)C6)nc4c3F)c12 (stereo partly shown),,simulated gastric fluid,"1 µM, 30 min, 37 °C",,remaining prodrug,96.9%
CC[C@H](C)[C@H](NC(=O)[C@@H](NC(=O)[C@H](CCCCN)NC(=O)[C@@H](NC(=O)[C@@H]1CCCN1[C@@H]1CN(C(=O)[C@@H](NC(=O)[C@@H](NC(=O)[C@@H](NC(=O)[C@@H](NC(=O)[C@@H](NC(=O)[C@@H](N)CCCCN)C(C)C)C(C)C)C(C)C)[C@@H](C)CC)[C@@H](C)O)CC[C@H]1NS(=O)(=O)c1ccc(C)cc1)[C@@H](C)O)C(C)C)C(=O)N[C@@H](CC(C)C)C(=O)N[C@@H](Cc1c[nH]cn1)C(N)=O,LC-MS,pronase digest,"200 µM, 30 min, pH 7.5, 37 °C, with: pronase 2.5 µg/mL",,remaining intact peptide,100%
Cc1cc(-c2ccc3ccccc3c2)nnc1NCCN1CCN(C)CC1,,rat liver microsomes,20 min,,remaining compound,84.6%
C=CCN1CCC23c4c5ccc(OC(=O)c6ccc(NC(=O)OC(C)(C)C)cc6)c4OC2C(=O)CCC3(O)C1C5 (stereo not shown),,rat plasma,"1 h, with: digitonin 100 µM",,remaining compound,0%
CCCCCCCCCCCC(=O)C(C)C(=O)N1CCC[C@H]1C(=O)NC(C)(C)C(=O)NC(C)(C)C(=O)NC(C)(C)C(=O)N[C@](C)(CC)C(=O)NCCC(=O)N[C@@H](C)C(=O)N[C@](C)(CC)C(=O)N[C@@H](C)C(=O)N[C@@H](CC(C)C)C(=O)N[C@](C)(CC)C(=O)NCCC(=O)N[C@@H](C)C(=O)N[C@](C)(CC)C(=O)NCCC(=O)N[C@@H](C)C(=O)NC(C)(C)C(=O)NC(C)(C)C(=O)NC(C)(C)C(=O)N[C@@H](C)C(=O)N[C@@H](CC(=O)O)C(=O)O (stereo partly shown),LC-MS,buffer with human neutrophil elastase,"40 µM, 300 min, pH 7.5, 37 °C",reference: 0 h,remaining intact peptide,60.5% and 56.4% and 65.5%
C=CCN1CCC23c4c5ccc(OC(=O)c6ccccc6)c4OC2C(=O)CCC3(O)C1C5 (stereo not shown),,human plasma,4 h,,remaining compound,34.4% and 36% and 35%
C#Cc1c(F)ccc2cc(O)cc(-c3ncc4c(N5CC6CCC(C5)N6C(=O)OCOC(=O)CCC)nc(OC[C@@]56CCCN5C[C@H](F)C6)nc4c3F)c12,,simulated gastric fluid,"1 µM, 30 min, 37 °C",,remaining prodrug,95.1%
C=CCN1CCC23c4c5ccc(OC(=O)c6ccc(N)cc6)c4OC2C(=O)CCC3(O)C1C5 (stereo not shown),,rat plasma,"1 h, with: loperamide 100 µM",,remaining compound,56.7% and 58.2% and 54.7%
CC[C@H](C)[C@H](NC(=O)[C@H](Cc1ccccc1)NC(=O)[C@H](CCC(=O)O)NC(=O)[C@H](CCCCN)NC(=O)[C@H](C)NC(=O)[C@H](C)NC(=O)[C@H](CCC(N)=O)NC(=O)CNC(=O)[C@H](CCC(=O)O)NC(=O)[C@H](CC(C)C)NC(=O)[C@H](Cc1ccc(O)cc1)NC(=O)[C@H](CO)NC(=O)[C@H](CO)NC(=O)[C@@H](NC(=O)[C@H](CC(=O)O)NC(=O)[C@H](CO)NC(=O)[C@@H](NC(=O)[C@H](Cc1ccccc1)NC(=O)[C@@H](NC(=O)CNC(=O)N(CCC(=O)O)NC(=O)[C@H](C)NC(=O)N(N)Cc1c[nH]cn1)[C@@H](C)O)[C@@H](C)O)C(C)C)C(=O)N[C@@H](C)C(=O)N[C@@H](Cc1c[nH]c2ccccc12)C(=O)N[C@@H](CC(C)C)C(=O)N[C@H](C(=O)N[C@@H](CCCNC(=N)N)C(=O)NCC(=O)N[C@@H](CCCNC(=N)N)C(=O)NCC(=O)O)C(C)C,HPLC-UV,Tris-HCl buffer,"0.1 mmol/l, 24 h, pH 7.4, 37 °C",,remaining peptide,> 95%

# A few entries again:
SMILES,assay,test system,setting,scale,endpoint,value
C#Cc1c(F)ccc2cc(O)cc(-c3ncc4c(N5CC6CCC(C5)N6C(=O)OC(C)OC(=O)C(C)CC)nc(OC[C@@]56CCCN5C[C@H](F)C6)nc4c3F)c12 (stereo partly shown),,simulated gastric fluid,"1 µM, 30 min, 37 °C",,remaining prodrug,96.9%
